{"data": "Assay results of several laboratories", "ache": "Acetylcholinesterase (ache, Electrophorus electricus, UniProt O42275)", "Tripartite terminase subunit 3 C-terminal nuclease domain": "Tripartite terminase subunit 3, C-terminal nuclease domain (Human betaherpesvirus 5, UniProt P16732)", "AKR1C1": "Aldo-keto reductase family 1 member C1 (AKR1C1, Homo sapiens, UniProt Q04828)", "AKR1C2": "Aldo-keto reductase family 1 member C2 (AKR1C2, Homo sapiens, UniProt P52895)", "note": "Several values in a cell are separate wells, animals, samples, runs or records. ± gives the spread as reported.", "chain of UniProt P16732 (whole entry, looked up)": "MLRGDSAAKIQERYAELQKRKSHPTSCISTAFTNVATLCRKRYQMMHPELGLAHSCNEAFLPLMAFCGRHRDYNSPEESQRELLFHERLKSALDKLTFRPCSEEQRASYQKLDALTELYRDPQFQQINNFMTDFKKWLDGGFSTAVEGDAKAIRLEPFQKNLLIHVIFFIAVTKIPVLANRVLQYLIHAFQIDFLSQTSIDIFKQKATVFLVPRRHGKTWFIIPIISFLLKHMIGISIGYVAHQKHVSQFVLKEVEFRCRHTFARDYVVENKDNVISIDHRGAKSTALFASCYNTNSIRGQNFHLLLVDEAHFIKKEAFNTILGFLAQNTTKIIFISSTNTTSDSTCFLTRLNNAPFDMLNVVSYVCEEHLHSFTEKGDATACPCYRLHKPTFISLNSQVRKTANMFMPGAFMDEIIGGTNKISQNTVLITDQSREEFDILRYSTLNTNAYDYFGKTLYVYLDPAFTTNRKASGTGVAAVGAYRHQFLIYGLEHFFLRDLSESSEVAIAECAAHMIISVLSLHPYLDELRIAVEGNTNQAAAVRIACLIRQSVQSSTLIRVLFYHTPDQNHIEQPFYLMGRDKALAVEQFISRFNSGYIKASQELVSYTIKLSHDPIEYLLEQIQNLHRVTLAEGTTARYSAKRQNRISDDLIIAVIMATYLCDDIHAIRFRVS", "chain of UniProt O42275 (whole entry, looked up)": "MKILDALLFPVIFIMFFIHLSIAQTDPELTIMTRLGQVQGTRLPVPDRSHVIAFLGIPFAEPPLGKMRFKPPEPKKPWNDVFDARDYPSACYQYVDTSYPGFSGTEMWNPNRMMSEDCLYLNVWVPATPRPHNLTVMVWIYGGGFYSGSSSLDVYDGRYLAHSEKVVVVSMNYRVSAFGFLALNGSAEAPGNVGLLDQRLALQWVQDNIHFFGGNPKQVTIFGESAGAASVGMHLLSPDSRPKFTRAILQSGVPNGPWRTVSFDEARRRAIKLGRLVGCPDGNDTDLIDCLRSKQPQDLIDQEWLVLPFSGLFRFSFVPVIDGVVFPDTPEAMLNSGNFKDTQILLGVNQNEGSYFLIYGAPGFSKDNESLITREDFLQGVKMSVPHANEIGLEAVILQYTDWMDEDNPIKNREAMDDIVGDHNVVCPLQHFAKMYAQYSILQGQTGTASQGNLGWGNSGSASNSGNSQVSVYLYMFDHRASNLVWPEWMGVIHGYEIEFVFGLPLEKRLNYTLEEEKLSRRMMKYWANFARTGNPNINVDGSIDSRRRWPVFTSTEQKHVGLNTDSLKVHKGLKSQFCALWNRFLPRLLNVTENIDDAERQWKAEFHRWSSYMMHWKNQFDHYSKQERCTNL", "chain of UniProt P52895 (whole entry, looked up)": "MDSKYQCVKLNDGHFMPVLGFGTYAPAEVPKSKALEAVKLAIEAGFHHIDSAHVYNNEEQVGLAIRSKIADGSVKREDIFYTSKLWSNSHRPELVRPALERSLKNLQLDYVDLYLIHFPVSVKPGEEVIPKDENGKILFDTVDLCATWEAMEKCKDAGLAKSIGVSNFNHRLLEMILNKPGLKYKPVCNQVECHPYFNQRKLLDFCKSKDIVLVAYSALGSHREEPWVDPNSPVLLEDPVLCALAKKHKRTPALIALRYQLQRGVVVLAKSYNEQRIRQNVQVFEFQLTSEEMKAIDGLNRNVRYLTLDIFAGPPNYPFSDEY", "chain of UniProt Q04828 (whole entry, looked up)": "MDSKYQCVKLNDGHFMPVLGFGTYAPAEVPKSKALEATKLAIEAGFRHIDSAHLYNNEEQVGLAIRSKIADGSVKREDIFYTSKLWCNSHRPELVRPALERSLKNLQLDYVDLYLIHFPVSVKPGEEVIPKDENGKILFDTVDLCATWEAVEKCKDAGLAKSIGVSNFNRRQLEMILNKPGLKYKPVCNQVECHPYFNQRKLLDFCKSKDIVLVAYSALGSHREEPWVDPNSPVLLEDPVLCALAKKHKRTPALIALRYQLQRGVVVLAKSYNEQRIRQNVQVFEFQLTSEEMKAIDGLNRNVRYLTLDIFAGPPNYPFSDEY", "chain of UniProt O14744 (whole entry, looked up)": "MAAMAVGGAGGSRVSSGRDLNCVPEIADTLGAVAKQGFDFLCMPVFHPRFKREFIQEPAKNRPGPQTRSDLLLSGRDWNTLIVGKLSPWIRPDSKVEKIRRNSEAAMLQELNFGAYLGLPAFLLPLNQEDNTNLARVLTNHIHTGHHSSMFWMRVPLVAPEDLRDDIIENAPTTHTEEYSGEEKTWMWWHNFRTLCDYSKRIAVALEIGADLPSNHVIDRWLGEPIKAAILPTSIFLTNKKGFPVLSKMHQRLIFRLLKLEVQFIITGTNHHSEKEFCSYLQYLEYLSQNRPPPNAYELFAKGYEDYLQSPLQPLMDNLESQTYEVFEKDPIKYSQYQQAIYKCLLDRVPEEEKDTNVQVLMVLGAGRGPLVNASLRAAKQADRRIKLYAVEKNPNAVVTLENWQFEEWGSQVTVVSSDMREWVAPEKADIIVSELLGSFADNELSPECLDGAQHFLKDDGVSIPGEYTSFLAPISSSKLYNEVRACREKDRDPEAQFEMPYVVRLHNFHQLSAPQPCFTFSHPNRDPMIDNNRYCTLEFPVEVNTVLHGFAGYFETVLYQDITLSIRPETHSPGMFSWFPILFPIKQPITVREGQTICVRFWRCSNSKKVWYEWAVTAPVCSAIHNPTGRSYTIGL", "chain of UniProt P56817 (whole entry, looked up)": "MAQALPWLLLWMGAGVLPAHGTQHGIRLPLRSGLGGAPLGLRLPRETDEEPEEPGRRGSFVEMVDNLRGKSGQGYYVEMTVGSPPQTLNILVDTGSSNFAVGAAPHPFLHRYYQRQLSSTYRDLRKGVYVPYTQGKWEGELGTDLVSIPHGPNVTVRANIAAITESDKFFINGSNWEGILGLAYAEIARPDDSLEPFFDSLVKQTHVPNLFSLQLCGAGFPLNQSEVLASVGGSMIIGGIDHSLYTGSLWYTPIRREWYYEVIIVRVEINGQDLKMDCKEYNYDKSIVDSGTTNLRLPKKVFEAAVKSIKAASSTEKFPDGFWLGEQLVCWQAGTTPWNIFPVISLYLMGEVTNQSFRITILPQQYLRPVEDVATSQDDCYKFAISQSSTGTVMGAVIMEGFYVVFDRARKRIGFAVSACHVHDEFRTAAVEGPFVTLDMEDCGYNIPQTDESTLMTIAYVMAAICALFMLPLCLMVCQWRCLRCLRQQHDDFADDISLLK", "chain of UniProt Q8R146 (whole entry, looked up)": "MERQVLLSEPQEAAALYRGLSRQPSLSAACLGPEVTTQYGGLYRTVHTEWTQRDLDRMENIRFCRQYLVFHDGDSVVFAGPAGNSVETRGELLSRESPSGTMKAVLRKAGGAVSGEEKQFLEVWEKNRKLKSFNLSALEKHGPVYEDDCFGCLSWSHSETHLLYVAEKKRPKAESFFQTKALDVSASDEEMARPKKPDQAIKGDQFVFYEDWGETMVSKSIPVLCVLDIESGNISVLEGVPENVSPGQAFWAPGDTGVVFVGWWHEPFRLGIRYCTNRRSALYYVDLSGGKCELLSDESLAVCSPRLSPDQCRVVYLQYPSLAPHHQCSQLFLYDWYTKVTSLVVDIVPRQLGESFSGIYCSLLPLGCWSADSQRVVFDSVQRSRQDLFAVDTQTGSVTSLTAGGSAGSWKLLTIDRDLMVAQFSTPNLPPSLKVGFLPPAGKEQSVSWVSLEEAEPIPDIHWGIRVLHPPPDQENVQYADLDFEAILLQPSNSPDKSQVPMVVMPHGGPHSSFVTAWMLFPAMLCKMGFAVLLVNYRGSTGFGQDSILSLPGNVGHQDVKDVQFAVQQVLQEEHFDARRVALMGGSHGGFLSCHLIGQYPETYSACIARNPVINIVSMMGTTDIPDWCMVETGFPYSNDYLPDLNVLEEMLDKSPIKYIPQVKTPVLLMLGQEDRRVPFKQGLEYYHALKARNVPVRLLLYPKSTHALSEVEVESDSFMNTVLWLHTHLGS", "chain of UniProt P08246 (whole entry, looked up)": "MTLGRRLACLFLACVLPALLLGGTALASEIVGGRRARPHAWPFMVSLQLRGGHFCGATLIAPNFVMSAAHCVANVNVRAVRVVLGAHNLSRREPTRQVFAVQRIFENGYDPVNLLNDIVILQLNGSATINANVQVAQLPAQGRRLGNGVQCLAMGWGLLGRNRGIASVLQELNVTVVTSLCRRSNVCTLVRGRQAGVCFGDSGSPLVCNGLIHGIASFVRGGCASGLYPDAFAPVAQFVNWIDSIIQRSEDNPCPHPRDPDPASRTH", "chain of UniProt P35236 (whole entry, looked up)": "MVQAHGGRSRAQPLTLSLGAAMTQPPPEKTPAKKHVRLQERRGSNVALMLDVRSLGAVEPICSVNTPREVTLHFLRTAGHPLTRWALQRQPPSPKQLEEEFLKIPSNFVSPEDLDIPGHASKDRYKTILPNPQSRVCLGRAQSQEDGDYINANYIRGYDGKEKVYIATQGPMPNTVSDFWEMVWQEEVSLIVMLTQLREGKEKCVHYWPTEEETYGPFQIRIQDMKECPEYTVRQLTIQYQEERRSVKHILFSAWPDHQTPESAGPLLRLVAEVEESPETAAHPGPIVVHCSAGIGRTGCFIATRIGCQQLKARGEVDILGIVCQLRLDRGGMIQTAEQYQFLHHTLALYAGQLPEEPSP"}
{"SMILES": "O=c1c(NCCc2ccc(O)cc2)c(NC2CCN(Cc3ccccc3)CC2)c1=O", "tested on": "ache", "test": "enzyme activity, inhibitor, Ellman", "conditions": "25 µM", "quantity": "inhibition", "value": "63.9%"}
{"SMILES": "O=C(NCc1ccc(F)cc1F)c1cn(Cc2ccc(F)cc2)cc(O)c1=O", "tested on": "Tripartite terminase subunit 3 C-terminal nuclease domain", "test": "endonuclease activity, inhibitor, ELISA", "conditions": "20 µM", "quantity": "inhibition", "value": "14%"}
{"SMILES": "CCN(Cc1ccccc1)C(=O)CCc1nc(CN2CCN(C(=O)Cc3ccc(OC)c(OC)c3)CC2)no1", "tested on": "SCN4A (Homo sapiens, UniProt P35499)", "test": "ion current, inhibitor, patch clamp", "system": "HEK293", "conditions": "10 µM", "quantity": "inhibition", "value": "1.07%"}
{"SMILES": "c1cc(Nc2c3c(nc4ccccc24)CCCC3)c2cccnc2c1", "tested on": "ache", "test": "enzyme activity, inhibitor, Ellman", "conditions": "50 µM", "quantity": "inhibition", "value": "21%"}
{"SMILES": "O=C(NCc1cccc2[nH]cc(C(=O)C(F)(F)F)c12)c1cn(Cc2ccc(F)cc2)cc(O)c1=O", "tested on": "Tripartite terminase subunit 3 C-terminal nuclease domain", "test": "endonuclease activity, inhibitor, ELISA", "conditions": "20 µM", "quantity": "inhibition", "value": "14%"}
{"SMILES": "COc1ccc(Nc2c3c(nc4ccc(Cl)cc24)CCCC3)nc1", "tested on": "ache", "test": "enzyme activity, inhibitor, Ellman", "conditions": "100 µM", "quantity": "inhibition", "value": "> 90%"}
{"SMILES": "Cc1ccc(N2CC3CCC(C2)N3C)cc1C(=O)N[C@H](C)c1cc(-c2cnn(C)c2)nc2ccccc12", "tested on": "UCHL1 (Homo sapiens, UniProt P09936)", "test": "enzyme activity", "conditions": "concentration not given", "quantity": "inhibition", "value": "no inhibition"}
{"SMILES": "Cc1c(C(=O)Nc2cccc(C(F)(F)F)c2)cc(-c2ccccc2)n1CCCN1CCOCC1", "tested on": "TRPV4 (Homo sapiens, UniProt Q9HBA0, Y591H)", "test": "calcium influx, inhibitor", "system": "HeLa cells transfected", "conditions": "10 nM, with: 30% hypotonicity", "quantity": "inhibition", "value": "no inhibition"}
{"SMILES": "c1cncc(Nc2c3c(nc4ccccc24)CCCC3)c1", "tested on": "ache", "test": "enzyme activity, inhibitor, Ellman", "conditions": "100 µM", "quantity": "inhibition", "value": "52.8%"}
{"SMILES": "O=C(C[P+]([Au-][Cl])(c1ccccc1)c1ccccc1)[O][Ti+2][O]C(=O)C[P+]([Au-][Cl])(c1ccccc1)c1ccccc1.c1cc[cH-]c1.c1cc[cH-]c1", "tested on": "MAPKAPK5 (Homo sapiens, UniProt Q8IW41)", "test": "kinase activity", "conditions": "10 µM", "quantity": "inhibition", "value": "≥ 50%"}
{"SMILES": "Cc1cccnc1Nc1c2c(nc3ccccc13)CCCC2", "tested on": "ache", "test": "enzyme activity, inhibitor, Ellman", "conditions": "100 µM", "quantity": "inhibition", "value": "65.7%"}
{"SMILES": "CC(C)CC(O)(CC(C)C)c1cn(C(=O)N2CCCC2)nn1", "tested on": "Acylamino-acid-releasing enzyme (Apeh, Mus musculus, UniProt Q8R146)", "test": "probe labelling, inhibitor, gel-based competitive ABPP", "system": "mouse T-cell proteome", "conditions": "10 nM, 30 min", "quantity": "inhibition", "value": "inhibited"}
{"SMILES": "C[C@]12CCC[C@H]1[C@@H]1CCc3c(cc(Br)c(O)c3Br)[C@H]1CC2", "tested on": "AKR1C1", "test": "enzyme activity, inhibitor, absorbance", "conditions": "100 µM, pH 9", "quantity": "inhibition", "value": "64.3%"}
{"SMILES": "CC(C)[C@H]1NC(=O)[C@H](CO)NC(=O)c2cc3cc(c2)C(=O)NC[C@H](NC(=O)[C@H](Cc2c[nH]cn2)NC(=O)[C@H](Cc2ccc(C(F)(F)P(=O)(O)O)cc2)NC(=O)[C@@H]2CCCN2C1=O)C(=O)N[C@@H](Cc1ccccc1)C(=O)N[C@@H](Cc1ccc2ccccc2c1)C(=O)N[C@@H](CCCNC(=N)N)C(=O)N[C@@H](CCCNC(=N)N)C(=O)N[C@@H](CCCNC(=N)N)C(=O)N[C@@H](CCCNC(=N)N)C(=O)N[C@H](C(=O)N[C@@H](CCCCN)C(N)=O)CNC3=O", "tested on": "PTPN7 (Homo sapiens, UniProt P35236)", "test": "enzyme activity, inhibitor, absorbance", "conditions": "1 µM", "quantity": "inhibition", "value": "≤ 10%"}
{"SMILES": "CC1CCc2nc3ccccc3c(Nc3ccc4ccccc4n3)c2C1 (stereo not drawn)", "tested on": "ache", "test": "enzyme activity, inhibitor, Ellman", "conditions": "50 µM", "quantity": "inhibition", "value": "27%"}
{"SMILES": "COc1cn(Cc2ccc(F)cc2)cc(C(=O)NCc2ccc(F)cc2F)c1=O", "tested on": "Tripartite terminase subunit 3 C-terminal nuclease domain", "test": "endonuclease activity, inhibitor, ELISA", "conditions": "20 µM", "quantity": "inhibition", "value": "6%"}
{"SMILES": "NCC(CCC(N)C(=O)O)CC1OC(n2cnc3c(N)ncnc32)C(O)C1O (stereo not drawn)", "tested on": "PRMT5 (Homo sapiens, UniProt O14744)", "test": "enzyme activity, inhibitor", "conditions": "20 µM", "quantity": "inhibition", "value": "> 50%"}
{"SMILES": "CC(=O)NC(Cc1ccc(Br)c(Cl)c1)C(=O)N[C@@H](C)C(=O)N1CCC[C@H]1C(=O)N1CCC[C@H]1C(=O)N[C@@H](CCC(=O)O)C(=O)N[C@@H](Cc1c[nH]cn1)C(=O)N[C@@H](CO)C(=O)N[C@H](C(=O)N[C@@H](C)C(N)=O)[C@@H](C)OP(=O)(O)O (stereo partly drawn)", "tested on": "SRC (Homo sapiens, UniProt P12931)", "conditions": "10 µM", "quantity": "inhibition", "value": "1.67 ± 0.08%"}
{"SMILES": "CCOC(=O)[C@H]1Cc2c(cc([N+](=O)[O-])cc2[N+](=O)[O-])[C@H](O)[C@]12C(=O)Nc1ccccc12", "tested on": "MDM2 (Homo sapiens, UniProt Q00987)", "conditions": "1 µM", "quantity": "inhibition", "value": "47.8%"}
{"SMILES": "C[C@@]12CC[C@H]3[C@@H](CCC4=CC(=O)C=C[C@@]43F)[C@@H]1CCC2=O", "tested on": "AKR1C1", "test": "enzyme activity, inhibitor, absorbance", "conditions": "100 µM, pH 9", "quantity": "inhibition", "value": "50%"}
{"SMILES": "CC(=O)N(C)[C@@H](Cc1ccccc1)C(=O)N[C@@H](Cc1ccccc1)C(=O)N[C@@H](CC1CCCCC1)C(=O)N[C@@H](CCCNC(=N)N)C(=O)N[C@@H](CC(C)C)C(=O)N[C@@H](CCCNC(=N)N)C(=O)N[C@@H](CCCNC(=N)N)C(=O)N[C@H](C)C(=O)N[C@@H](CCCNC(=N)N)C(=O)N1CCC[C@H]1C(=O)N[C@@H](CCCCN)C(N)=O", "tested on": "Oprk1 (Rattus norvegicus, UniProt P34975)", "test": "adenylyl cyclase activity, agonist", "system": "CHO cells", "conditions": "10 µM", "how to read": "baseline: dynorphin A(1-13) amide", "quantity": "inhibition", "value": "> 40%"}
{"SMILES": "C[C@@]12CC[C@@H]3c4cc(Cl)c(O)c(Cl)c4CC[C@H]3[C@@H]1CCC2=O", "tested on": "AKR1C2", "test": "enzyme activity, inhibitor, absorbance", "conditions": "10 µM, pH 9", "quantity": "inhibition", "value": "84.1%"}
{"SMILES": "COc1ccc(Nc2c3c(nc4ccccc24)CCC(C)C3)nc1 (stereo not drawn)", "tested on": "ache", "test": "enzyme activity, inhibitor, Ellman", "conditions": "50 µM", "quantity": "inhibition", "value": "22.2%"}
{"SMILES": "Nc1ccc(CCNc2c(NC3CCN(Cc4ccccc4)CC3)c(=O)c2=O)cc1", "tested on": "ache", "test": "enzyme activity, inhibitor, Ellman", "conditions": "25 µM", "quantity": "inhibition", "value": "69.5%"}
{"SMILES": "COc1cc(-c2oc3cc(O)c(OC)c(O)c3c(=O)c2OC)ccc1O", "tested on": "Neutrophil elastase (ELANE, Homo sapiens, UniProt P08246)", "test": "enzyme activity, inhibitor", "conditions": "10 µM", "quantity": "inhibition", "value": "20.3 to 27.1%"}
{"SMILES": "O=C(NC1CCN(c2ncnc3[nH]cnc23)CC1)c1cccc(NS(=O)(=O)c2ccc(C(F)(F)F)cc2)c1", "tested on": "RNMT (Homo sapiens, UniProt O43148)", "test": "enzyme activity, inhibitor", "conditions": "concentration not given", "quantity": "inhibition", "value": "inactive"}
{"SMILES": "c1ccc2nc(Nc3c4c(nc5ccccc35)CCCC4)ccc2c1", "tested on": "ache", "test": "enzyme activity, inhibitor, Ellman", "conditions": "50 µM", "quantity": "inhibition", "value": "72.6%"}
{"SMILES": "C[C@@](O)(C(F)F)[C@H](NC(=O)c1ccc(C#CC#CC2CC2)cc1)C(=O)NO", "tested on": "MMP14 (Homo sapiens, UniProt P50281)", "test": "enzyme activity, inhibitor", "conditions": "30 µM", "quantity": "inhibition", "value": "≤ 30%"}
{"SMILES": "C[C@@]12CC[C@@H]3c4ccc(O)c(Cl)c4CC[C@H]3[C@@H]1CCC2=O", "tested on": "AKR1C2", "test": "enzyme activity, inhibitor, absorbance", "conditions": "100 µM, pH 9", "quantity": "inhibition", "value": "80%"}
{"SMILES": "CC[C@H](C)[C@@H]1NC(=O)CNC(=O)[C@H](CCSC)NC(=O)[C@H](C(C)C)NC(=O)[C@H]([C@@H](C)O)NC(=O)[C@@H]2CSSC[C@@H]3NC(=O)[C@H](Cc4c[nH]cn4)NC(=O)[C@@H](NC(=O)[C@@H](NC(=O)[C@H](Cc4ccccc4)NC(=O)[C@H](C)N)[C@@H](C)O)CSSC[C@@H](C(=O)N[C@@H](CC(C)C)C(=O)O)NC(=O)[C@H](CSSC[C@H](NC(=O)[C@H](CO)NC(=O)[C@H](CCCNC(=N)N)NC(=O)[C@H](CCCNC(=N)N)NC3=O)C(=O)N[C@@H](Cc3ccc(O)cc3)C(=O)N[C@@H](CO)C(=O)N[C@@H]([C@@H](C)O)C(=O)N[C@@H](CCC(=O)O)C(=O)N[C@@H](Cc3ccc(O)cc3)C(=O)N[C@@H](CO)C(=O)N[C@@H](Cc3ccc(O)cc3)C(=O)NCC(=O)N[C@@H]([C@@H](C)O)C(=O)N2)NC(=O)[C@H](Cc2ccccc2)NC(=O)[C@H](CCCNC(=N)N)NC(=O)[C@H](Cc2c[nH]cn2)NC(=O)[C@H](CC(N)=O)NC1=O", "tested on": "Islet amyloid polypeptide, mature peptide 1-37 (IAPP, Homo sapiens, UniProt P10997)", "test": "amyloid fibril formation, inhibitor, ThT fluorescence", "conditions": "concentration not given, 24 to 30 h, 37 °C, compound ratio 1:1, with: hIAPP 20 µM", "quantity": "inhibition", "value": "32%"}
{"SMILES": "O=C(O)/C=C/c1ccc(O)cc1", "tested on": "alpha-glucosidase", "test": "enzyme activity", "conditions": "250 µg/mL", "quantity": "inhibition", "value": "57.5% and 63.5%"}
{"SMILES": "Nc1ccc(Nc2c(NC3CCN(Cc4ccccc4)CC3)c(=O)c2=O)cc1", "tested on": "ache", "test": "enzyme activity, inhibitor, Ellman", "conditions": "25 µM", "quantity": "inhibition", "value": "77%"}
{"SMILES": "CN[C@](C)(C[18F])C(=O)O", "tested on": "A549 tumour model", "system": "host not given, bone", "conditions": "30 min, tumour-bearing", "quantity": "tracer uptake", "value": "2.1 %ID/g"}
{"SMILES": "S=C(NCc1ccccn1)NCc1ccccn1", "tested on": "AMY2 (Sus scrofa, UniProt P00690)", "test": "enzyme activity, inhibitor", "conditions": "250 µg/mL", "quantity": "inhibition", "value": "56%"}
{"SMILES": "Cc1ccc(/C=C/C(=O)c2ccc(N3CCNCC3)cc2)cc1", "tested on": "Beta-secretase 1 (BACE1, Homo sapiens, UniProt P56817)", "test": "enzyme activity, inhibitor, fluorescence", "conditions": "10 µM", "quantity": "inhibition", "value": "44.5%"}
{"SMILES": "FC(F)(F)c1cccc(Nc2c3c(nc4ccccc24)CCCC3)c1", "tested on": "ache", "test": "enzyme activity, inhibitor, Ellman", "conditions": "100 µM", "quantity": "inhibition", "value": "67.5%"}
{"note": "A few entries again:"}
{"SMILES": "COc1cn(Cc2ccc(F)cc2)cc(C(=O)NCc2ccc(F)cc2F)c1=O", "tested on": "Tripartite terminase subunit 3 C-terminal nuclease domain", "test": "endonuclease activity, inhibitor, ELISA", "conditions": "20 µM", "quantity": "inhibition", "value": "6%"}
{"SMILES": "NCC(CCC(N)C(=O)O)CC1OC(n2cnc3c(N)ncnc32)C(O)C1O (stereo not drawn)", "tested on": "PRMT5 (Homo sapiens, UniProt O14744)", "test": "enzyme activity, inhibitor", "conditions": "20 µM", "quantity": "inhibition", "value": "> 50%"}
{"SMILES": "CC(=O)NC(Cc1ccc(Br)c(Cl)c1)C(=O)N[C@@H](C)C(=O)N1CCC[C@H]1C(=O)N1CCC[C@H]1C(=O)N[C@@H](CCC(=O)O)C(=O)N[C@@H](Cc1c[nH]cn1)C(=O)N[C@@H](CO)C(=O)N[C@H](C(=O)N[C@@H](C)C(N)=O)[C@@H](C)OP(=O)(O)O (stereo partly drawn)", "tested on": "SRC (Homo sapiens, UniProt P12931)", "conditions": "10 µM", "quantity": "inhibition", "value": "1.67 ± 0.08%"}
